Assay results of several laboratories.

`O=C(Nc1nc2cccc(-c3ccc(CN4CCS(=O)(=O)CC4)cc3)n2n1)C1CC1` — result for “patients with TEAE”: 0% (refers to: ankle fracture; rheumatoid arthritis patients; oral, 100 mg twice daily, 4 weeks).
Under “patients with adverse event”, `COc1cc(Nc2ncc3c(n2)-c2ccc(Cl)cc2C(c2c(F)cccc2OC)=NC3)ccc1C(=O)O` is recorded as 25% (refers to: oral mucositis, grade 1; cancer patients, phase 1/2; dose not given, together with: pembrolizumab).
For `COc1ccc([C@@H](O)c2cc(-c3ncnc4cc(N5CCOCC5)ccc34)c(F)cc2Cl)nn1`, “patients with TEAE” read 100% (refers to: general and administration site disorders; locally advanced rectal cancer patients; 50 mg, together with: capecitabine plus radiotherapy).
`C[C@@H](c1ccc2nccn2c1)n1nnc2ncc(-c3cnn(C)c3)nc21` — result for “patients with adverse events”: 1% (refers to: treatment-related grade ≥3 Anemia; EGFR-mutant MET-altered NSCLC; oral, dose not given, all).
`C=CC(=O)NC1CCN(c2ncc3ncnc(Nc4ccc(Oc5ccc6c(c5)ncn6C)c(C)c4)c3n2)CC1`: “patients with muscle twitching” 0% (male patients; oral, dose not given, on-treatment adverse events).
`C[C@@H](Nc1cc(F)cc(F)c1)c1cc(C(=O)N(C)C)cc2c(=O)cc(N3CCOCC3)oc12` — result for “patients discontinuing for AE”: 0% (refers to: Pruritus; advanced solid tumour patients; oral, dose not given, dose expansion).
`FC(F)(F)c1ccc(CNc2ccc(Cc3c[nH]c4ncc(Cl)cc34)cn2)cn1` — result for “patients with treatment-related adverse event”: 2% (refers to: alanine aminotransferase increased; non-TGCT solid tumour patients; oral, 1000 mg/day, grade 3 or higher).
`CNC(=O)c1cc(Oc2ccc(NC(=O)Nc3cc(C(C)(C)C)nn3-c3ccc4ncccc4c3)c(F)c2)ccn1`: “patients with visual abnormalities” 20% (patients; oral, dose not given, cycles 1 and 2, Low AUC subgroup).
For `CCOc1c([C@H](C)n2nc(C)c3c(N)ncnc32)cc(Cl)c(F)c1[C@@H]1CNC(=O)C1`, the patients was 0% (refers to: QTcF above 500 ms; previously treated B-cell malignancy; oral, 45 mg once daily, baseline QTcF ≤450 ms).
`Cc1cc(-c2nnc(N)nc2-c2ccc(F)cc2)cc(Cl)n1`: “patients with immune-mediated AE” 0% (refers to: Hypothyroidism; IO-naive mCRPC patients, male; oral, dose not given, treatment-related, grade 1).
`CNC(=O)c1ccc(-c2cnc3ncc(Cc4ccc5ncccc5c4)n3n2)cc1F`: “patients with adverse event” 37% (refers to: Nausea, all grades; cancer patients; oral, dose not given, dose escalation, any causality).
For `Cc1cc(NC2CCN(C(=O)OC3CCN(C(=O)/C=C/CN(C)C)C3)CC2)n2ncc(C(C)C)c2n1` (stereo not drawn), “patients with adverse event” read 11% (Phase I dose escalation CTCAE v4.0, refers to: Dizziness; patients with advanced solid tumours; dose not given, all dose schedules any grade).

Excerpt of the above:
`O=C(Nc1nc2cccc(-c3ccc(CN4CCS(=O)(=O)CC4)cc3)n2n1)C1CC1` — result for “patients with TEAE”: 0% (refers to: ankle fracture; rheumatoid arthritis patients; oral, 100 mg twice daily, 4 weeks).
